{"data": "Measured values from different studies", "note": "A part holds a random share of what one study measured.", "sequence of UniProt P42681 (whole entry, looked up)": "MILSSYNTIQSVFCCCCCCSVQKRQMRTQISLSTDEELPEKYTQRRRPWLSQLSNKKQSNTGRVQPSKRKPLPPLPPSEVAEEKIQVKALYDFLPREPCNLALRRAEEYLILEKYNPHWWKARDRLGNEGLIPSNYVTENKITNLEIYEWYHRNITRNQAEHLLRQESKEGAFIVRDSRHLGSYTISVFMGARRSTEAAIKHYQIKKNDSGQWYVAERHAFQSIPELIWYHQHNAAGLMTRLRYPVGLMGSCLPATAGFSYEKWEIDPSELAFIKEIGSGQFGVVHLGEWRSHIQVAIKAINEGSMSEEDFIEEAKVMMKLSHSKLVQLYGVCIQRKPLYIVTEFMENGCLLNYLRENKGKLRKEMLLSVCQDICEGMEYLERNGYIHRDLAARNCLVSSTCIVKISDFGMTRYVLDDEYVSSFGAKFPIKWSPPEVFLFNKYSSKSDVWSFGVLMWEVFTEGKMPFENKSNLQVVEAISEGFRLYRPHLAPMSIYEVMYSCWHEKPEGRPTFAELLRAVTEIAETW", "sequence of UniProt P10721 (whole entry, unmodified, looked up)": "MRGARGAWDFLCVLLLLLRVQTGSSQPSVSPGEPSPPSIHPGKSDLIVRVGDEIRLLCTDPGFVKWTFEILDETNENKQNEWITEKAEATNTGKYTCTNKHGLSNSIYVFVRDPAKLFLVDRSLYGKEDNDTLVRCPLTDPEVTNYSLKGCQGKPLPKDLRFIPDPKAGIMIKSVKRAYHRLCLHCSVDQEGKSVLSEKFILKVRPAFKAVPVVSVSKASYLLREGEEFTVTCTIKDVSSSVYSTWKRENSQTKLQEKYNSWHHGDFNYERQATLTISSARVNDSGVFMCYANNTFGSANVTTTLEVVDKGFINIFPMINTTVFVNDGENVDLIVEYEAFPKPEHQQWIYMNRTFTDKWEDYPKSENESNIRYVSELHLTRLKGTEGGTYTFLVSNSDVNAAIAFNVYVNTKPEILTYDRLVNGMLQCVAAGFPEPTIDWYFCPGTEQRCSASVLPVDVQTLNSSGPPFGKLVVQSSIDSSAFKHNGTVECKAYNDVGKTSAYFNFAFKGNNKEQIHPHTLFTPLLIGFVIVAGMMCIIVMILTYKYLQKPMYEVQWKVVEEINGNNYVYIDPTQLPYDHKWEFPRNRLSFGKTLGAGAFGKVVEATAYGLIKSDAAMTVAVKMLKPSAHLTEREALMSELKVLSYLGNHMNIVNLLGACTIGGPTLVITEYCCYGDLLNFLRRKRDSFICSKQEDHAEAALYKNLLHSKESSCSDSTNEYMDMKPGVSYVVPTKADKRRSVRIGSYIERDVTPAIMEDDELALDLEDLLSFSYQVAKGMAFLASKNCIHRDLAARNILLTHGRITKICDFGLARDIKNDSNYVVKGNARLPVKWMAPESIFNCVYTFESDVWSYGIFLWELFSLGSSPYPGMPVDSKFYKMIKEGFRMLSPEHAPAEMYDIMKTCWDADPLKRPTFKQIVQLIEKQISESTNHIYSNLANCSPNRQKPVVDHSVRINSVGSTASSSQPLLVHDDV", "sequence of UniProt Q6P3R8 (whole entry, looked up)": "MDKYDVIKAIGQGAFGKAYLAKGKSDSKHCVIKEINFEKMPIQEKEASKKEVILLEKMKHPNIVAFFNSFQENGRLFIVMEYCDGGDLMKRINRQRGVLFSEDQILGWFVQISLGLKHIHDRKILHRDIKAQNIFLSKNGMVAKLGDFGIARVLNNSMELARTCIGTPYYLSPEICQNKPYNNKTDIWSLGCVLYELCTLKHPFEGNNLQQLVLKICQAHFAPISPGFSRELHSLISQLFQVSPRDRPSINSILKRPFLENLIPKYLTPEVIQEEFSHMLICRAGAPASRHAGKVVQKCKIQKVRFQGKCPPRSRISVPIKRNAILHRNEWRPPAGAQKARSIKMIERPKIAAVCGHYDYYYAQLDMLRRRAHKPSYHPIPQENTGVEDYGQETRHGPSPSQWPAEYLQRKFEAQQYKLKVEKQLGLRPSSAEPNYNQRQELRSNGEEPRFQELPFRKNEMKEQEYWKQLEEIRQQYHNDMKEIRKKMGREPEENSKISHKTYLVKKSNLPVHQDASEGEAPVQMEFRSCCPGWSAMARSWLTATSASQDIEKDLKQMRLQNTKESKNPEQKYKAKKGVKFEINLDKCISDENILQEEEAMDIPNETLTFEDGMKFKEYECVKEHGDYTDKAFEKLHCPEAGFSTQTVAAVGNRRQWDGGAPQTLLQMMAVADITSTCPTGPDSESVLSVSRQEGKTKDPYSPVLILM", "sequence of UniProt Q9Y6M4 (whole entry, looked up)": "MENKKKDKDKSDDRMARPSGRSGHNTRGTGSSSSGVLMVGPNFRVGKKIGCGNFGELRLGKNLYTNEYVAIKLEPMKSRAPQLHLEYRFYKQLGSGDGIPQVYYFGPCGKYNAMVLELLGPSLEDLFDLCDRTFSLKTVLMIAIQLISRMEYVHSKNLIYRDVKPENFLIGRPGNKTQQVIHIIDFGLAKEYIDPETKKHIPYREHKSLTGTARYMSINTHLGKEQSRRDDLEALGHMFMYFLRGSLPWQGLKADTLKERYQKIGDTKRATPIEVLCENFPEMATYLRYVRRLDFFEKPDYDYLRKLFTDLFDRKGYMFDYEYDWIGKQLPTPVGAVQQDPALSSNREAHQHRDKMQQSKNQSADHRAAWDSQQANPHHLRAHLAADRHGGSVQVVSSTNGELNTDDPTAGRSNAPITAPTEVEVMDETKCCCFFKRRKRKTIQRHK", "sequence of UniProt P68400 (whole entry, looked up)": "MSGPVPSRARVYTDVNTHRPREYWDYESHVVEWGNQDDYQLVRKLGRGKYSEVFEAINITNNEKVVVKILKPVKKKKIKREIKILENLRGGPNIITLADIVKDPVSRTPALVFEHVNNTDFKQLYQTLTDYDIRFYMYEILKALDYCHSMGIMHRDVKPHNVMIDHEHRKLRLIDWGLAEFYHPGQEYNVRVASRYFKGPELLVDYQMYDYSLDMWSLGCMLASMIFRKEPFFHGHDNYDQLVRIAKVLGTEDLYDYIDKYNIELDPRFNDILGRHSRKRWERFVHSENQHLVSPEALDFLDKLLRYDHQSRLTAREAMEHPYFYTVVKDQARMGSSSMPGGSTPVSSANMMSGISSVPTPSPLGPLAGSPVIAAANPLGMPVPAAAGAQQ", "sequence of UniProt P0C264 (whole entry, looked up)": "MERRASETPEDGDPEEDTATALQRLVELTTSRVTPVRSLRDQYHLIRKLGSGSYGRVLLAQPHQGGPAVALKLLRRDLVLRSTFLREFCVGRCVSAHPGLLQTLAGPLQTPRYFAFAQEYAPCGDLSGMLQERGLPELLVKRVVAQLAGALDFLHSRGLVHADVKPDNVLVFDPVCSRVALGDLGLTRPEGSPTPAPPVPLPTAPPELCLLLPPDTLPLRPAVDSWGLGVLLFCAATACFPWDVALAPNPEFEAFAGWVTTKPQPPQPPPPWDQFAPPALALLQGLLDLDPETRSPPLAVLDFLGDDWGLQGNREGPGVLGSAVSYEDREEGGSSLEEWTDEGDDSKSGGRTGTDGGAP"}
{"data": "Study 1", "target": "Beta-1 adrenergic receptor (ADRB1, Homo sapiens, UniProt P08588)", "mode": "agonist", "sequence of UniProt P08588 (whole entry, looked up)": "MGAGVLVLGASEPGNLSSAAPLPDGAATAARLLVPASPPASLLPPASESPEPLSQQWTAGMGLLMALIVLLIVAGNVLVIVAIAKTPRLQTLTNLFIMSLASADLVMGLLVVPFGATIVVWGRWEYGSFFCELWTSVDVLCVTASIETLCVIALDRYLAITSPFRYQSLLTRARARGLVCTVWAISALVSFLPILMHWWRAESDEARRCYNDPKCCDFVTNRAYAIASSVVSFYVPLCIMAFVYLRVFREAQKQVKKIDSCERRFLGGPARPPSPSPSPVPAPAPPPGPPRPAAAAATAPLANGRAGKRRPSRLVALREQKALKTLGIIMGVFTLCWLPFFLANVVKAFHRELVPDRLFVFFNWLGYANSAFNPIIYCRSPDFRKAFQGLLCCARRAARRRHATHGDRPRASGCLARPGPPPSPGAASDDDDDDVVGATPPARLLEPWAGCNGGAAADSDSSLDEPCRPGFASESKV"}
{"Compound": "Cc1nc2c(c(N[C@@H]3COCC[C@H]3OCc3ccccn3)n1)CCC2", "EC50": "≥ 100 µM"}
{"Compound": "CN(Cc1ccc(F)cc1)c1ccc2ncc(Nc3cccc(O)c3)n2n1", "EC50": "≥ 100 µM"}
{"Compound": "C#CC1(OCC(O)CN2CCN(c3cccc(C(F)(F)F)c3)CC2)CCCCC1 (stereo not shown)", "EC50": "14.1 µM"}
{"Compound": "O=c1c(Cl)c(NC(c2ccccc2)c2cccs2)cnn1-c1ccc(C(F)(F)F)cn1 (stereo not shown)", "EC50": "≥ 100 µM"}
{"Compound": "N#Cc1ccc(OCC(O)CN2CCN(c3ncnc4ccsc34)CC2)cc1 (stereo not shown)", "EC50": "≥ 100 µM"}
{"Compound": "Fc1ccc(-c2nnc3ccc(N4CCN(c5ccccn5)CC4)nn23)nc1", "EC50": "≥ 100 µM"}
{"Compound": "COc1ccc(-c2ccc3ncc4c(c3c2)n(-c2ccc(N3CCNCC3)c(C(F)(F)F)c2)c(=O)n4C)cn1", "EC50": "≥ 100 µM"}
{"data": "Study 2", "target": "Tyrosine-protein kinase ABL1 (ABL1, Homo sapiens, UniProt P00519)", "observed": "enzyme activity", "mode": "inhibitor", "tested at": "0.5 µM", "baseline": "control", "sequence of UniProt P00519 (whole entry, looked up)": "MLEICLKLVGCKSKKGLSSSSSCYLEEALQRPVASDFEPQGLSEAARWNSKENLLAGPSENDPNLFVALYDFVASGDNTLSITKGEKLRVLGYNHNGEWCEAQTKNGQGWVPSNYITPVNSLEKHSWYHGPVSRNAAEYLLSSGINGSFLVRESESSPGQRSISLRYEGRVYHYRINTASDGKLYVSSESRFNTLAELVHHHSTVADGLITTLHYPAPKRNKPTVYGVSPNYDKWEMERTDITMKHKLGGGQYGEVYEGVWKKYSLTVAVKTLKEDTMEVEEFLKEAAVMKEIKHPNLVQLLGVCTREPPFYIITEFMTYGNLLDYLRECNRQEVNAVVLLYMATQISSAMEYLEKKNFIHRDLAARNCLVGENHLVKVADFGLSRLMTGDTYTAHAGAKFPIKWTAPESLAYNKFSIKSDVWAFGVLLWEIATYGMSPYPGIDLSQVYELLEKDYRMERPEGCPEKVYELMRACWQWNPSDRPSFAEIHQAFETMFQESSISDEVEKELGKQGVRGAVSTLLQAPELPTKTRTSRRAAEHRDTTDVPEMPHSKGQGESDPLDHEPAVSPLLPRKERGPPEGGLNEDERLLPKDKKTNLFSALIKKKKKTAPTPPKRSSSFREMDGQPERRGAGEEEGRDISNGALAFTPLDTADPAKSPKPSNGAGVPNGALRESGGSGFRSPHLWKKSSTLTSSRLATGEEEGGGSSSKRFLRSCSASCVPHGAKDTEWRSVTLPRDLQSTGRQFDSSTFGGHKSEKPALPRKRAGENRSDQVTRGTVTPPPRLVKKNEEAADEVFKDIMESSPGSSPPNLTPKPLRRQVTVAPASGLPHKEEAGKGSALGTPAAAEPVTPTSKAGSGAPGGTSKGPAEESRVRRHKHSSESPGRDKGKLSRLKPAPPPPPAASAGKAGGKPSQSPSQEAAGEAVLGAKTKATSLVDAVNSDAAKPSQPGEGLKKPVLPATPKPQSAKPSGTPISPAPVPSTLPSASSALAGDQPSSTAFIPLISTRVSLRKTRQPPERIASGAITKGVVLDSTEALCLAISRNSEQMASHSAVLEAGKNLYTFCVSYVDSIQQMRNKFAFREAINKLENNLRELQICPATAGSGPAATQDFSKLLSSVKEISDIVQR"}
{"Compound": "Nc1ccc2ncnc(NCCc3ccc(Oc4ccccc4)cc3)c2c1", "remaining activity": "89.7%"}
{"Compound": "O=C(CCCc1ccc(-c2ccccc2F)cc1)Nc1ccc(O)cc1", "remaining activity": "101%"}
{"Compound": "O=C(Nc1cccc(Nc2cc(Nc3cccc(C(F)(F)F)c3)ncn2)c1)C1CC1", "remaining activity": "103%"}
{"Compound": "OCC(O)CCON=C1C(c2c(O)[nH]c3ccccc23)=Nc2ccccc21 (stereo not shown)", "remaining activity": "71.9%"}
{"Compound": "CO[C@H]1C[C@@H]2CC[C@@H](C)[C@@](O)(O2)C(=O)C(=O)N2CCCC[C@H]2C(=O)O[C@H]([C@H](C)C[C@@H]2CC[C@@H](O)[C@H](OC)C2)CC(=O)[C@H](C)/C=C(\\C)[C@@H](O)[C@@H](OC)C(=O)[C@H](C)C[C@H](C)/C=C/C=C/C=C/1C", "remaining activity": "103%"}
{"Compound": "COc1ccc(C(=O)Nc2sc3c(c2C(N)=O)CCCC3)cc1OC", "remaining activity": "101%"}
{"Compound": "O=C1NC(=O)C(c2cn(CCCn3ccnc3)c3ccccc23)=C1Nc1ccccc1", "remaining activity": "96.1%"}
{"Compound": "O=S(=O)(c1cccc2cnccc12)N1CCCNCC1", "remaining activity": "96.8%"}
{"Compound": "O=C(O)c1ccc2c3c1cccc3c(=O)n1c3ccccc3nc21", "remaining activity": "99.3%"}
{"Compound": "O=c1c2ccccc2[nH]c(=S)n1CCN1CCC(=C(c2ccc(F)cc2)c2ccc(F)cc2)CC1", "remaining activity": "106%"}
{"Compound": "Cn1sc(=O)n(Cc2ccccc2)c1=O", "remaining activity": "104%"}
{"Compound": "COc1cc2ncnc(Nc3ccc(Oc4ccccc4)cc3)c2cc1OC", "remaining activity": "81.8%"}
{"Compound": "Cc1nc(-c2ccccc2)c(-c2ccncc2)o1", "remaining activity": "100%"}
{"Compound": "COc1cc2nccc(Oc3ccc(NC(=S)NC(=O)c4ccccc4C)cc3)c2cc1OC", "remaining activity": "50.6%"}
{"data": "Study 3", "SMILES": "O=C(NCCCC1CCCCC1)c1ccc(CNC(=O)c2cnn(-c3ccccc3)c2C(F)(F)F)cc1", "technique": "competition with immobilised ligand", "tested at": "0.1 µM"}
{"target": "TXK (Homo sapiens, UniProt P42681)", "test": "binding", "remaining binding [%]": 100}
{"target": "SBK3 (Homo sapiens, UniProt P0C264)", "test": "cell-free assay", "remaining binding [%]": 100}
{"target": "CSNK2A1 (Homo sapiens, UniProt P68400)", "test": "cell-free assay", "remaining binding [%]": 94}
{"target": "TNK2 (Homo sapiens, UniProt Q07912)", "test": "cell-free assay", "remaining binding [%]": 100}
{"target": "PKN1 (Homo sapiens, UniProt Q16512)", "test": "cell-free assay", "remaining binding [%]": 100}
{"target": "KIT (Homo sapiens, UniProt P10721, D816H)", "test": "cell-free assay", "remaining binding [%]": 78}
{"target": "MAK (Homo sapiens, UniProt P20794)", "test": "cell-free assay", "remaining binding [%]": 100}
{"target": "BLK (Homo sapiens, UniProt P51451)", "test": "cell-free assay", "remaining binding [%]": 100}
{"target": "NEK5 (Homo sapiens, UniProt Q6P3R8)", "test": "cell-free assay", "remaining binding [%]": 100}
{"target": "CSNK1G3 (Homo sapiens, UniProt Q9Y6M4)", "test": "cell-free assay", "remaining binding [%]": 100}
{"data": "Study 4", "host": "mouse", "medium": "microsomes or S9", "tested at": "2 µM", "time": "0.5 h"}
{"SMILES": "Nc1nnc2sc3cc(Br)ccc3n12", "remaining compound [%]": 0}
{"SMILES": "O=c1ccc(-c2noc(Cc3c(F)cccc3Cl)n2)c[nH]1", "remaining compound [%]": 0.13}
{"SMILES": "CN(C)c1nc(N)nc(CNc2nccc(C3CCCC3)n2)n1", "remaining compound [%]": 0.418}
{"SMILES": "COc1ccc(CN(Cc2ccc(OC)cc2)c2ncnc3c2[nH]c(=O)n3[C@H](C)c2cc3ccccc3nc2-c2ccccc2C)cc1", "remaining compound [%]": 37.3}
{"SMILES": "Cc1nc(Oc2ccccc2)c(N)c(N2CCC(C)CC2)n1", "remaining compound [%]": 5.82}
{"SMILES": "O=C(c1cccnc1Cl)N1CCCCC1c1ccccc1 (stereo not shown)", "remaining compound [%]": 10.2}
{"note": "A few entries again (study 2):"}
{"Compound": "O=C(CCCc1ccc(-c2ccccc2F)cc1)Nc1ccc(O)cc1", "remaining activity": "101%"}
{"Compound": "O=S(=O)(c1cccc2cnccc12)N1CCCNCC1", "remaining activity": "96.8%"}
{"Compound": "COc1cc2ncnc(Nc3ccc(Oc4ccccc4)cc3)c2cc1OC", "remaining activity": "81.8%"}
